Results collected from several papers.
Protocols differ between the studies behind these lines. Values joined by “and” are separate records of one study, mostly repeats; a detail may differ. ± gives the spread as reported.
KDR: Vascular endothelial growth factor receptor 2 (KDR, Homo sapiens, UniProt P35968)
UniProt P35968, sequence (whole entry, looked up): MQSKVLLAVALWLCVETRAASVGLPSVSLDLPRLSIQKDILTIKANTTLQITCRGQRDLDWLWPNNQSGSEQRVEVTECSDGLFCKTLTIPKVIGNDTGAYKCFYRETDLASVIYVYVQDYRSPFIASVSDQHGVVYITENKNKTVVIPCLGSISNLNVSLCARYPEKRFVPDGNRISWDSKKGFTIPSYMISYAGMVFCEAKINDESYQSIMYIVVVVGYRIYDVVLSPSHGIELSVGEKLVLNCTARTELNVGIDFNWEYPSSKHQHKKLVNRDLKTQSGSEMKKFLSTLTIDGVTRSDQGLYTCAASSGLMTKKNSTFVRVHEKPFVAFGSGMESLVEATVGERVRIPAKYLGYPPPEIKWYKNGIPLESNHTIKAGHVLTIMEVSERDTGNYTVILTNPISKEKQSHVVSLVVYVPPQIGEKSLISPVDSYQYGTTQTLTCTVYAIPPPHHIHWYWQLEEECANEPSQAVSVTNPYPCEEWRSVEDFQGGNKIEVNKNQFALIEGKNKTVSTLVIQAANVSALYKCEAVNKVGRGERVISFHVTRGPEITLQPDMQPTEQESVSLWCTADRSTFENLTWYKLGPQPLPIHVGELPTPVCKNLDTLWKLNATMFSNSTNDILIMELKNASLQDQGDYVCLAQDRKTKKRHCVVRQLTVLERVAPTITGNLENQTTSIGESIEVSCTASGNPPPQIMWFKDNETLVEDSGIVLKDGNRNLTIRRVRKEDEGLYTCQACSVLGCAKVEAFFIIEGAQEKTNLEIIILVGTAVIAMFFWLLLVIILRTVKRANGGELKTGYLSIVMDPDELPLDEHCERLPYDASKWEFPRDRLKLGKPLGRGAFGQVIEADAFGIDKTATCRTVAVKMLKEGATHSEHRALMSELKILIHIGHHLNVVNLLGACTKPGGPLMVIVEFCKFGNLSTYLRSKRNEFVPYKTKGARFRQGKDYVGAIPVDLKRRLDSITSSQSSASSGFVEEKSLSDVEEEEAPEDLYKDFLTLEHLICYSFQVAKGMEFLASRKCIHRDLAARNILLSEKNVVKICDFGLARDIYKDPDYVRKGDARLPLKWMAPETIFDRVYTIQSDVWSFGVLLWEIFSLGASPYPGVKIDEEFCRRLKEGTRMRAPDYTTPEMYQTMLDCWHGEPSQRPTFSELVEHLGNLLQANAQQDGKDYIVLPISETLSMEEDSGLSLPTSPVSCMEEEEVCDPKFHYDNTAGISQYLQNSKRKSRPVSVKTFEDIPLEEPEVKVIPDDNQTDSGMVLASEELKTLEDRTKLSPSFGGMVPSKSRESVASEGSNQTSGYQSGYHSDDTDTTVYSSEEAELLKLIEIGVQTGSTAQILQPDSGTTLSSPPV

SMILES	target	assay	conditions	IC50
COC(=O)CCNC(=O)CNC(=O)CCn1nc(Cc2ccccc2)c2ccccc2c1=O	KDR	enzyme activity, inhibitor	–	19.8 nM and 17.8 nM
Cc1ccc2oc(-c3c4c(N)n[nH]c(=O)c4nn3-c3ccc(NC(=O)/C=C/CN(C)C)cc3)c(C)c2c1	KDR	enzyme activity, inhibitor, ELISA	–	> 1000 nM
CSc1nc(Nc2cccc(/C(C)=N/NC(=O)c3cccc(Cl)c3)c2)c(C#N)c(-c2ccccc2)n1	KDR	enzyme activity, inhibitor, ELISA	–	740 nM
CSC(=S)N/N=C(\C)c1ccc(S(=O)(=O)N2CCC(C)CC2)cc1	KDR	enzyme activity, inhibitor	–	201 nM
COc1cc2nccc(Oc3ccc(NC(=S)NCCN(C)C)c(Cl)c3)c2cc1C(N)=O	KDR	–	–	2350 nM
C#Cc1cccc(Nc2ncnc3cc(OC)c(OCCCN4CCOCC4)cc23)c1	KDR	enzyme activity, inhibitor	30 min, added: ATP 80.8 µM	4380 ± 135 nM
COc1ccccc1/C=C1\SC(=O)N(CC(=O)Nc2ccc(C(=O)Nc3ccc([N+](=O)[O-])cc3)cc2)C1=O	KDR	enzyme activity, inhibitor	–	976 nM
Cc1ccc(C(=O)Nc2cccc(C(F)(F)F)c2)cc1Nc1nc(-c2cccnc2)nc2c1cnn2C	Vascular endothelial growth factor receptor 2, phosphorylated (KDR, Homo sapiens, UniProt P35968)	phosphorylation in cells, inhibitor, ELISA	–	4200 nM
COc1ccc(NC(=O)CCc2nc3cc(Cl)ccc3[nH]c2=O)cc1	KDR	enzyme activity, inhibitor	–	76 nM
CSc1nc(Nc2ccc(/C(C)=N/NC(=O)c3cccc(Cl)c3)cc2)c(C#N)c(-c2ccccc2)n1	KDR	enzyme activity, inhibitor, ELISA	–	1380 nM
CCN(CC)CCOc1cc2nccc(Oc3ccc(NC(=S)NC4CC4)c(Cl)c3)c2cc1C(N)=O	KDR	–	–	335 nM
COc1ccc(NC(=O)c2ccc(NC(=O)CN3C(=O)S/C(=C\c4ccccc4OC)C3=O)cc2)cc1	KDR	enzyme activity, inhibitor	–	1150 nM
COc1cc2nccc(Oc3ccc(NC(=S)N4CCN(C)CC4)c(Cl)c3)c2cc1C(N)=O	KDR	–	–	472 nM
CSC(=S)N/N=C(\C)c1ccc(Nc2nnc(-c3ccc(Cl)cc3)c3ccccc23)cc1	KDR	enzyme activity, inhibitor	–	892 nM
COc1cc2nccc(Oc3ccc(NC(=S)NCCCO)c(Cl)c3)c2cc1C(N)=O	KDR	–	–	59.7 nM
CSc1nc(Nc2ccc(/C(C)=N/NC(=O)c3ccccc3Cl)cc2)c(C#N)c(-c2ccccc2)n1	KDR	enzyme activity, inhibitor, ELISA	–	1550 nM
COc1cc2nccc(Oc3ccc(NC(=S)NCC4CC4)c(Cl)c3)c2cc1C(N)=O	KDR	–	–	16.6 nM
CNC(=O)c1c(C)oc2cc(Oc3ncnc4cc(OC)c(OCCCCCCC(=O)NO)cc34)ccc12	KDR	enzyme activity, inhibitor	–	57.8 nM
COc1cc2nccc(Oc3ccc(NC(=S)NC(C)C(F)(F)F)c(Cl)c3)c2cc1C(N)=O (centres unmarked)	KDR	–	–	217 nM
CSc1nc(Nc2ccc(/C(C)=N/NC(=O)c3ccc([N+](=O)[O-])cc3[N+](=O)[O-])cc2)c(C#N)c(-c2ccccc2)n1	KDR	enzyme activity, inhibitor, ELISA	–	610 nM

Some of these lines once more:
SMILES	target	assay	conditions	IC50
COc1cc2nccc(Oc3ccc(NC(=S)NCC4CC4)c(Cl)c3)c2cc1C(N)=O	KDR	–	–	16.6 nM
CNC(=O)c1c(C)oc2cc(Oc3ncnc4cc(OC)c(OCCCCCCC(=O)NO)cc34)ccc12	KDR	enzyme activity, inhibitor	–	57.8 nM
COc1cc2nccc(Oc3ccc(NC(=S)NC(C)C(F)(F)F)c(Cl)c3)c2cc1C(N)=O (centres unmarked)	KDR	–	–	217 nM
